Literature values as cited in several papers.
Compare with care: the assays were run in different laboratories. Converted amounts (≈) assume the structure as drawn.

SMILES	target or system	assay	system	setting	endpoint	value
CC1(C)S[C@@H]2[C@H](NC(=O)[C@H](N)c3ccccc3)C(=O)N2[C@H]1C(=O)O	Acinetobacter baumannii	–	clinical isolate RKI-No_584/16	–	MIC	> 16 µg/mL
O=C(Nc1cccc2cnccc12)NC1CCc2ccccc2C1Cc1ccccc1 (stereo not shown)	TRPV1	calcium flux, antagonist	HEK293	together with: capsaicin	IC50	20 nM
COc1ccccc1Oc1cccc(CN2CCC(NC(=O)C(CCN3CCCC3)c3ccccc3)CC2)c1 (stereo not shown)	human CCR8 K195A mutant (TM5)	IP accumulation, agonist	–	–	EC50	2 nM
Nc1cc(C(F)(F)F)c(-c2nc(N3CCOCC3)nc(N3CCOCC3)n2)cn1	U-87 MG	–	–	–	GI50	1480 nM
Cc1c(C#N)cccc1[C@@H](C)Nc1nnc(C)c2cnc(N3CCOCC3)cc12	NCI-H211	3D cell viability	–	14 d	IC50	> 1000 nM
CNC(C)C1CCC(N)C(OC2C(N)CC(N)C(OC3OCC(C)(O)C(NC)C3O)C2O)O1 (stereo not shown)	Escherichia coli	–	clinical isolate RKI-No_330/16	–	MIC	2 µg/mL (≈ 4.19 µM)
COc1ccccc1Oc1cccc(CN2CCC(O)(c3ccccc3C(=O)O)CC2)c1	human CCR8 Y114A mutant (TM3)	IP accumulation, agonist	–	–	EC50	430 nM
C[C@H]1COCCN1c1nc(-c2cnc(N)cc2C(F)F)nc(N2CCOCC2)n1	RT-4	–	–	–	GI50	352 nM
FC(F)(F)c1ccc(Nc2cnnc3cc(-c4ncccc4C(F)(F)F)ccc23)cc1	TRPV1	calcium flux, antagonist	HEK293	together with: capsaicin	IC50	29 nM
COc1ccccc1Oc1cccc(CN2CCC(NC(=O)C3CC(=O)Nc4ccccc43)CC2)c1 (stereo not shown)	human CCR8 K195A mutant (TM5)	IP accumulation, agonist	–	–	EC50	62 nM

Excerpt of the above:
SMILES	target or system	assay	system	setting	endpoint	value
CC1(C)S[C@@H]2[C@H](NC(=O)[C@H](N)c3ccccc3)C(=O)N2[C@H]1C(=O)O	Acinetobacter baumannii	–	clinical isolate RKI-No_584/16	–	MIC	> 16 µg/mL
